Experimental data collected from several papers.
Parts stem from different laboratories: compare values within a part only.

Series 1
Target: Ras GTPase-activating protein-binding protein 1, full length (G3BP1, Homo sapiens, UniProt Q13283)
Chain of UniProt Q13283 (whole entry, looked up): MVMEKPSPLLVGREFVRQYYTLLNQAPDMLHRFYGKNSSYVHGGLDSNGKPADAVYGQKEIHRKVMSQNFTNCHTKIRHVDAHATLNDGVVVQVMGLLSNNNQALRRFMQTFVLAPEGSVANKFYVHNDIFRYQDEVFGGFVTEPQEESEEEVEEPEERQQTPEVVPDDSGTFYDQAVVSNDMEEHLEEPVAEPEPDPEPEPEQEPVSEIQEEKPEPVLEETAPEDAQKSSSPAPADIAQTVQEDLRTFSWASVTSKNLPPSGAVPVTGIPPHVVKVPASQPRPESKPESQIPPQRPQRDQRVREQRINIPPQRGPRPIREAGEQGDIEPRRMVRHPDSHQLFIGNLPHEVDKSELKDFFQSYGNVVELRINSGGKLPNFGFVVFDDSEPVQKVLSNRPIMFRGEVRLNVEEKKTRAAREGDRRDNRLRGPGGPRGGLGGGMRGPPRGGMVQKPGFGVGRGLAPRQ
Technique: RNA Bind-n-Seq
Molecule type: RNA
Matrix: in vitro
Concentration: 200 nM
Notes: whole 134-nt RNA, ends assumed
Together with: 150 mM LiCl
Baseline: input library
Direction: higher = stronger binding
Library: 7-deaza-guanosine replaces G
Oligonucleotide	log2 enrichment
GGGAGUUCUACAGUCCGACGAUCUGGCCCUGGUGGCAUGCGGGGAGGAAGAGGUAGCCUCAUGGAUCGUGGUGGUCCCGGUGGAAUGUUCAGAGGUGGCCGUGGUGGAGACAGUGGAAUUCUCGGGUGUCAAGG	0.0846
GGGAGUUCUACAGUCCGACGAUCCCUGUGCUACACAUCGUAUGUACCGAAUCGGGAAAAAGGGAAAAAAAGGGAAAAAAAGGGAAAGUAUUAUGUUACGCCGUUCGGAUCUGCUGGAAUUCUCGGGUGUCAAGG	0.132
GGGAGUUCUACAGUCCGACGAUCCAAGUCCUGUGCUACACAUCGUAUGUACCGAAUCGGUUUGGUUUGGGGUUUGGGGAAAGUAUUAUGUUACGCCGUUCGGAUCUGCACUUCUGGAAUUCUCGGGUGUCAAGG	-0.858
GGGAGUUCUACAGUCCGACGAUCAGUCCUGUGCUACACAUCGUAUGUACCGAAUCGGAAAAGGGGAAAAGGGGAAAAGGGGAAAGUAUUAUGUUACGCCGUUCGGAUCUGCACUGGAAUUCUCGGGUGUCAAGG	0.233
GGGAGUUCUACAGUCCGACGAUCCCUGUGCUACACAUCGUAUGUACCGAAUCGGGUUUUUUGGGGUUUUUUGGGGUUUUUUGGGAAAGUAUUAUGUUACGCCGUUCGGAUCUGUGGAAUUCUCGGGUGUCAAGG	0.856
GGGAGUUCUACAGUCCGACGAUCUAGGUAUUUCUGGGAAAAGCCAGCUUCUGUUUGCACUGGUCUUCACAACUCGUUACCUGGAUCUUUUUACUUCAUUUAUUUCAUUGUAUAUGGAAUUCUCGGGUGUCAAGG	-1.59
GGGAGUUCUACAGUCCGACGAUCUCCUGUGCUACACAUCGUAUGUACCGAAUCGGCCCCCCGGCCCCCCGGGGCCCCCCGGGAAAGUAUUAUGUUACGCCGUUCGGAUCUGCAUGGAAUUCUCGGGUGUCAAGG	-0.199
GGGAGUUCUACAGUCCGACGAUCGCAGGAAGUAAAAACAAAUGGAAAUGCUUCGGAUAGUGGCAGGAAAGGGGGUUGCUAAGGAAAGGGUGGGAUGGGAGUGGGUAAAGAGUUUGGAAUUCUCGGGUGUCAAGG	0.46
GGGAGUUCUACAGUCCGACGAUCUCCUCAAGUCCUGUGCUACACAUCGUAUGUACCGAAUCGGAGGAAAGGUGGAAAGUAUUAUGUUACGCCGUUCGGAUCUGCACUUCCAGCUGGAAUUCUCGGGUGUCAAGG	-1.55
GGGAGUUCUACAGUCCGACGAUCUGGCCCUGGUGGCAUGCGGGGAGGAAGAGGUGGCCUCAUUGAUCGUGGUGGUCCCGGUGGAAUGUUCAGAGGUGGCCGUGGUGGAGACAGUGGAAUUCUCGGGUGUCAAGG	0.353
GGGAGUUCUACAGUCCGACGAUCGCAGGAAGUAAAAACAAAUGGAAAUGCUUCGGAUAGUGGCAGGGGUGGGGGUUGCUACGGAAAGGGUGGGAUGGGAGUGGGUAAAGAGUUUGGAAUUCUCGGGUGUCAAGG	0.03

Series 2
Target: Interferon regulatory factor 7, full length, phosphomimetic (IRF7, Homo sapiens, UniProt Q92985, residues 1-503, S471D/S472D/S475D/S476D/S477D/S483D/S484D/S487D)
Chain of UniProt Q92985 (whole entry, unmodified, looked up): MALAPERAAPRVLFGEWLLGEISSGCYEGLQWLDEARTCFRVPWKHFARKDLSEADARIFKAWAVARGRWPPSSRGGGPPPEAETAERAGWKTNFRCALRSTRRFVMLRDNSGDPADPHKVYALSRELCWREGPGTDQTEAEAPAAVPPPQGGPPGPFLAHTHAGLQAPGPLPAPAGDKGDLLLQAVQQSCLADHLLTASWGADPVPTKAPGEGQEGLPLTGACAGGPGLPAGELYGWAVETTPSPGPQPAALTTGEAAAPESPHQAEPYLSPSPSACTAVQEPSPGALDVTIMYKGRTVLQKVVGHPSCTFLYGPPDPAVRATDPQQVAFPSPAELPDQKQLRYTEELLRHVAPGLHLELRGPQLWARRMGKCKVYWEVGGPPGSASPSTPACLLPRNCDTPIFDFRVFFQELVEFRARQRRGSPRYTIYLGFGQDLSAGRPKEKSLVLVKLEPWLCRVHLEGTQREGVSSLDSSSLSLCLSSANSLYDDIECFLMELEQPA
Technique: protein-binding microarray
Molecule type: double-stranded DNA, one strand shown
Matrix: in vitro
Concentration: 2200 nM top
Notes: 60-bp whole probe
Together with: salmon DNA 0.4 mg/ml
Baseline: random background probes
Direction: higher = stronger binding
Constant ends, left off below: GCCTAGCAC … GTCTTGATTCGCTTGACGCTGCTG
Oligonucleotide	fitted relative affinity [z-score]
GCACGTGACTGTTTCCCAATGTGCTAG	1.41
TTCGAACTGGGGTTTCGATTAGTGCTA	2.46
GACGATCTCAGTCACGAGACGTGCTAG	0.101
TCAATTTTCGTTTTGTGACTGTGCTAG	12.8
TCATATTTAAGAACTATGACTGTGCTA	-0.204
TTAGATGTCAGTCTCGATTAGTGCTAG	0.362
GACGGTTCCGGTTTCTGGACGTGCTAG	3.9
GACGGTCTCGGTTTCGGGTCGTGCTAG	6.86
TCACCTTACTTTATGTAACTGTGCTAG	1.55
GACGAACTGAGGCTGGAGACGTGCTAG	-0.403
TTAGATTTCGGGTATCGATAAGTGCTA	2.41
GCCGGTTTCGACACTGGGGACGTGCTA	3.84
GACGAACTGAGTATCGACACGTGCTAG	0.1
TTAGATATCGGGACCGGATTAGTGCTA	-0.123
GACGATCTCAGTATCGAGACGTGCTAG	0.031
TGGGCTCTAGGTTCTCTGAAGGTGCTA	-0.679
GAGATTTTCATTATTGCTTCGTGCTAG	1.65
GACGATTTCAATCTCGAGACGTGCTAG	0.514
TCAACTCTTTACATGGGACTGTGCTAG	0.662
GACGGTTTCGGATTTCGGGACGTGCTA	7.06
GACGATATCGGGTATCCAGACGTGCTA	0.186
GACGATTTCGCGTATCGAGACGTGCTA	1.45
CTCATTCGTCATTTCACAGTGTGCTAG	2.38
GACGATCTCGGGTTTCGAGACGTGCTA	1.33
GATGGTCTCCTTATCCTGACGTGCTAG	1.19

Series 3
Target: RNA binding protein fox-1 homolog 2, RRM domain, GST-SBP tag (RBFOX2, Homo sapiens, UniProt O43251-10, residues 100-194)
Technique: RNA Bind-n-Seq
Molecule type: RNA
Matrix: in vitro
Concentration: 365 nM
Notes: natural RNA segment, single round, ends assumed
Baseline: no-protein control
Direction: higher = stronger binding
Target sequence (chain): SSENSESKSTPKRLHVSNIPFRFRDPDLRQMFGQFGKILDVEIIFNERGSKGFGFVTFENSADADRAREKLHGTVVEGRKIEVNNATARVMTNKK
Oligonucleotide	RBNS enrichment (R)
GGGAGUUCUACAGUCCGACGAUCAAAUUUGCUUUUCCCCAUAGCAUGUUAGGAAGGAAGUACAGGUCGUUACCUAAGCUAGCGUGGGCUUCCAGUUGCCUUAAUAGAAGUACUCAAGUCUCUUGGGUAGAGAUUGGAAUUCUCGGGUGCCAA	49
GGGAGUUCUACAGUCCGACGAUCUUUGUAAACUUUGAAAUAUAUGGUCUAAUGUUUAAGCAGAAUUGGAAAAGACUAAGAUCGGUUAACAAAUAACAACUUUUUUUUCUUUUUUUCUUUUGUUUUUUGAAGUGUGGAAUUCUCGGGUGCCAA	0.654
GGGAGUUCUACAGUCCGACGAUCUCUUGGGCAAUUUUCUAUUAGUGUUUCUUAUUUUGGCCAGUUCUUUUAUUUAUGUCCUUGUGACCCAGGUACUUGGGGGGCCAGCUACCCUUCUGGCCUUUUAGCGUCUUUGGAAUUCUCGGGUGCCAA	0.61
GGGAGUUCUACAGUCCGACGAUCAAAUGUCUGCAGGGCAUGUCAGAGACCUUUGCAGCAGUGCCUCCCAUCACAGGCCUGGAGGCCUAGGAGGGAAAAAAUGGUUUUGUGGGCCAGGCCCAAGGUCCCCUUGCUGGAAUUCUCGGGUGCCAA	0.474
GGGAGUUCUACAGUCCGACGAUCUGGCCUCCAGCAGGAGCACAGCUCAGCAGGGUCCCUGCUGCCCACCCCUCUGAGCCUUUUCUCCCCAGGGUAUGGCUCCUGCUGAGUUUCUUGUCCAGCAGGGCCUUGACUGGAAUUCUCGGGUGCCAA	0.299
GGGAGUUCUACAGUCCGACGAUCGCUUGCAAAUGAAUUGCUAGUCCCUCAUUGUGCGGGUCUAUGUGGAGCUUUAAUCAGUAAAUGUCUCCACUUCCUAUAUUACAUUAACGUUGGCUCAUGCAUAUAACCACUGGAAUUCUCGGGUGCCAA	7.65
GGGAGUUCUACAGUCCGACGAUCUAAUUUAGUGUUUUUAACUGAUACAUAAUUUAUCAAGCAGUACAUGAAAGUGUAAUAAUAAAAUGUCUAUGUAUCUUUAGUUACAUUCAAAUUUGUAACUUUAUAAACAUUGGAAUUCUCGGGUGCCAA	0.351
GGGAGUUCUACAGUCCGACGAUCCAUAGUUUGGGAGAUGGACAUUAAAGGGGCUAGAGGCCUAUAUGUGGCUGGUGUUGGUGACCCUGAUGUAUGGCAGAGCCCUUGGGGAGAAGAGACCCUGAGGGAAGGGCUGGAAUUCUCGGGUGCCAA	1.29
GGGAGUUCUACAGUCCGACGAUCCUGGACCGGUCUGGGUUUAAUCUCCCACAAUAAAGAUAAACCCCACGGACCUCACUGCUACUGCUGCCUCCAUUAACGCUGUGCUCACACAUUGUCUGGGAUUUUAAGGAUGGAAUUCUCGGGUGCCAA	0.597

Series 4
Target: Histone acetyltransferase KAT6A, winged helix 2, GST fusion (KAT6A, Homo sapiens, UniProt Q92794, residues 85-181)
Technique: protein binding microarray
Molecule type: double-stranded DNA, one strand shown
Matrix: in vitro
Concentration: not given
Notes: 8-mer, flanks averaged, mean of 2 arrays, mostly near background
Baseline: not given
Direction: higher = stronger binding
Residues (chain): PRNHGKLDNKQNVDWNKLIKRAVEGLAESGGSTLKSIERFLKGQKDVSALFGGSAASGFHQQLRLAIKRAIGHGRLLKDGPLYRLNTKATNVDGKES
Oligonucleotide	E-score
ACGAGTTA	-0.0137
GGGAGCAC	-0.00607
CAAATATA	-0.0695
CGTTGTCA	-0.145
CGGCCGTC	0.0651
CTCGAGTA	0.0264
CTGGTTTA	-0.0919
ATGCATCC	-0.00783
ATGCCCAT	-0.00779
CGTCCACG	0.0343
AGCTTTAC	-0.144
GACGACAC	-0.0124
GTTTTCTA	0.169
AGGAGCCC	0.0471
CATAACAC	-0.0493
CCAGCCCG	0.0388
CGGCCCAG	0.0909
AAGTGATG	-0.0412
CATGTTCG	-0.0949
AGGACGCA	-0.0103
GTGTCAGA	0.0869
CCGTGCAC	-0.00217
GCAATTGA	0.0638
ACTCGAGT	0.0766
CTCGAGGA	-0.0267

For quick reference, copied from above (series 1):
Oligonucleotide	log2 enrichment
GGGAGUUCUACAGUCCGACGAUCUCCUCAAGUCCUGUGCUACACAUCGUAUGUACCGAAUCGGAGGAAAGGUGGAAAGUAUUAUGUUACGCCGUUCGGAUCUGCACUUCCAGCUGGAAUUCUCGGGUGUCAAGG	-1.55
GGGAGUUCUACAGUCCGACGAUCCAAGUCCUGUGCUACACAUCGUAUGUACCGAAUCGGUUUGGUUUGGGGUUUGGGGAAAGUAUUAUGUUACGCCGUUCGGAUCUGCACUUCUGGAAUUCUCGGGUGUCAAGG	-0.858
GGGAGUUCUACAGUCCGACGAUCUGGCCCUGGUGGCAUGCGGGGAGGAAGAGGUGGCCUCAUUGAUCGUGGUGGUCCCGGUGGAAUGUUCAGAGGUGGCCGUGGUGGAGACAGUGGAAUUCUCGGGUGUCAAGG	0.353
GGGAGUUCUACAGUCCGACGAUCCCUGUGCUACACAUCGUAUGUACCGAAUCGGGAAAAAGGGAAAAAAAGGGAAAAAAAGGGAAAGUAUUAUGUUACGCCGUUCGGAUCUGCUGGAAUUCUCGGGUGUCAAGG	0.132
